Experimental data collected from several papers.
Lines come from different studies, so protocols differ. Several values in a cell are separate wells, animals, samples, runs or records. ± marks the error that the study gave. Converted amounts (≈) assume the structure as drawn.
Organism: Staphylococcus aureus

The MIC90 of `O=[N+]([O-])c1cc2c(ccc3cc(Br)ccc32)o1` is reported as over 32 µg/mL (REMA).
The MBC of `CC[C@H](C)[C@H](NC(=O)[C@H](Cc1ccccc1)NC(=O)[C@@H](NC(=O)[C@H](Cc1c[nH]c2ccccc12)NC(=O)[C@@H]1CCCN1C(=O)[C@@H](NC(=O)[C@H](C)N)[C@@H](C)CC)[C@@H](C)CC)C(=O)N[C@@H](Cc1ccccc1)C(=O)N[C@@H](CCCNC(=N)N)C(=O)N[C@@H](CC(C)C)C(=O)N[C@@H](CC(C)C)C(=O)N[C@@H](CCCNC(=N)N)C(=O)N[C@@H](CCCCN)C(=O)NCC(N)=O` is reported as 3.75 µM (≈ 6.48 µg/mL) (ATCC 35556; 18 h, 37 °C).
`N#Cc1ccc2c(ccc3oc([N+](=O)[O-])cc32)c1` gave an MIC90 of 2 µg/mL (≈ 8.4 µM) (REMA).
`OB(O)c1csc2ccccc12` gave a biofilm formation of 37.7% and 37.4% and 24% (crystal violet; USA300 wild type; 10 µM; baseline: wild type untreated).
With `COc1cc2ccc3oc([N+](=O)[O-])cc3c2cc1OC` the MIC90 was over 32 µg/mL (REMA).
With `O=C(O)c1cn(C2CC2)c2cc(N3CCNCC3)c(F)cc2c1=O` the biofilm inhibition was 1.5% (ATCC 33591 MRSA; 2×MIC).
For `CC[C@H](C)[C@H](NC(=O)[C@H](CCCNC(=N)N)NC(=O)[C@H](CCCNC(=N)N)NC(=O)[C@@H](N)CCCNC(=N)N)C(=O)N[C@@H](CO)C(=O)N[C@@H](Cc1ccccc1)C(=O)N[C@@H](CC(C)C)C(=O)NCC(=O)N[C@@H](CO)C(=O)N[C@@H](CCCCN)C(=O)N[C@H](C(=O)N[C@H](C(=O)N[C@H](C(=O)N[C@@H](CCCNC(=N)N)C(=O)N[C@@H](CCCNC(=N)N)C(=O)N[C@@H](CCCCN)C(=O)N[C@@H](CCCNC(=N)N)C(N)=O)C(C)C)C(C)C)C(C)C`, the FICI was 0.08 (checkerboard; unit not given, together with: oritavancin; lower means synergy).
With `CC(C)CCCCCCCCCCCCCCc1cc(O)cc(O)c1` the IC50 was over 200 µM (bacterial growth; MRSA USA300).
`CC[C@H](C)[C@H](NC(=O)[C@H](Cc1c[nH]c2ccccc12)NC(=O)[C@@H](NC(=O)[C@H](Cc1c[nH]c2ccccc12)NC(=O)[C@@H]1CCCN1C(=O)[C@@H](NC(=O)[C@H](C)N)[C@@H](C)CC)[C@@H](C)CC)C(=O)N[C@@H](Cc1c[nH]c2ccccc12)C(=O)N[C@@H](CCCNC(=N)N)C(=O)N[C@@H](CC(C)C)C(=O)N[C@@H](CC(C)C)C(=O)N[C@@H](CCCNC(=N)N)C(=O)N[C@@H](CCCCN)C(=O)NCC(N)=O` has an MBC of 3.75 µM (≈ 6.78 µg/mL) (ATCC 35556; 18 h, 37 °C).
Under “zone of inhibition”, `Oc1c(Br)cc(Br)c2nc3ccccc3nc12` is recorded as 5.47 ± 0.47 cm² (MRSA 1707, DMSO stock; 10 µL of 10 mM, 16 h, together with: glutathione 200 µM).
With `O=[N+]([O-])c1cc2c(ccc3c2ccc2cc([N+](=O)[O-])oc23)o1` the MIC90 was over 32 µg/mL (REMA).
With `CO[C@H]1[C@H](O[C@H]([C@H]2O[C@@H](n3ccc(=O)[nH]c3=O)[C@H](O)[C@@H]2O)[C@H](NCCCNC(=O)[C@@H](NC(=O)[C@@H](NC(=O)N[C@H](C(=O)O)C(C)C)[C@@H]2CCN=C(N)N2)[C@@H](OC(=O)CCCCCCCCCCCCN(O)C(=N)N)C(C)C)C(=O)O)O[C@H](CN)[C@H]1O` the MIC90 was 15.5 ± 0.455 µg/mL (≈ 12.8 µM) (resazurin microplate; 71080 (NR-46418)).
`Cc1c2c(nn1C)CSCc1cc(n(C)n1)CSc1cc(c3ccccc3c1)OCCCc1c(C(=O)O)n(C)c3c-2c(Cl)ccc13` gave a fold change of 0.0294 (label-free quantitative proteomics, measured: SAOUHSC_02073 protein; SA113; concentration not given; baseline: untreated control).
For `CC[C@H](C)[C@H](NC(=O)[C@H](Cc1ccccc1)NC(=O)[C@@H](NC(=O)[C@H](Cc1ccccc1)NC(=O)[C@@H]1CCCN1C(=O)[C@@H](NC(=O)[C@H](C)N)[C@@H](C)CC)[C@@H](C)CC)C(=O)N[C@@H](Cc1c[nH]c2ccccc12)C(=O)N[C@@H](CCCNC(=N)N)C(=O)N[C@@H](CC(C)C)C(=O)N[C@@H](CC(C)C)C(=O)N[C@@H](CCCNC(=N)N)C(=O)N[C@@H](CCCCN)C(=O)NCC(N)=O`, the MBC was 1.88 µM (≈ 3.25 µg/mL) (ATCC 35556; 18 h, 37 °C).
`CCCCCCCCCC(=O)N[C@@H](Cc1c[nH]c2ccccc12)C(=O)N[C@H](CC(N)=O)C(=O)N[C@@H](CC(=O)O)C(=O)N[C@@H]1C(=O)NCC(=O)N[C@@H](CCCN)C(=O)N[C@@H](CC(=O)O)C(=O)N[C@H](C)C(=O)N[C@@H](CC(=O)O)C(=O)NCC(=O)N[C@H](CO)C(=O)N[C@@H]([C@H](C)CC(=O)O)C(=O)N[C@@H](CC(=O)c2ccccc2N)C(=O)O[C@@H]1C`: “time to kill below detection” at most 10 h (ATCC 700699, MRSA; 4 × MIC).
`CN[C@H](CC(C)C)C(=O)N[C@H]1C(=O)N[C@@H](CC(N)=O)C(=O)N[C@H]2C(=O)N[C@H]3C(=O)N[C@H](C(=O)N[C@H](C(=O)O)c4cc(O)cc(O)c4-c4cc3ccc4O)[C@H](O)c3ccc(c(Cl)c3)Oc3cc2cc(c3O[C@@H]2O[C@H](CO)[C@@H](O)[C@H](O)[C@H]2O[C@H]2C[C@](C)(N)[C@H](O)[C@H](C)O2)Oc2ccc(cc2Cl)[C@H]1O`: “inhibition zone diameter” 13 mm (ATCC 25923; 128 µg per disk).
For `C=CC[C@@H]1c2ccc(OC)c(OC)c2CN2CCc3cc4c(cc3[C@H]12)OCO4`, “relative wound size” read 1.12 and 1.28 (P2rx7+/+ mice, skin wound infection; dose not given, day 2; baseline: day 0).
For `Cl.O[C@]12C=C(c3nccc4c3[nH]c3ccccc34)[C@@H]3CCN(CCCC/C=C\CC1)C[C@@]31C[C@@H]3/C=C\CCCCN3[C@H]12`, the IC50 was 0.19 ± 0.001 µg/mL (growth; ATCC 43300, MRSA).
`CC[C@H](C)[C@H](NC(=O)[C@H](C)NC(=O)[C@H](CCCCN)NC(=O)[C@H](CCCNC(=N)N)NC(=O)[C@H](CCCCN)NC(=O)[C@H](CCCNC(=N)N)NC(=O)[C@H](CCCCN)NC(=O)[C@@H](N)CCCNC(=N)N)C(=O)N[C@@H](CO)C(=O)NCC(=O)N[C@@H](CO)C(=O)N[C@@H](CC(C)C)C(=O)N[C@H](C(=O)N[C@H](C(=O)N[C@@H](CC(C)C)C(=O)N[C@@H](Cc1ccccc1)C(=O)NCC(=O)N[C@@H](Cc1ccc(O)cc1)C(N)=O)[C@@H](C)O)C(C)C` gave an FICI of 0.13 (checkerboard; unit not given, together with: oritavancin; lower means synergy).
The MIC90 of `Nc1c([N+](=O)[O-])oc2ccc3ccccc3c12` is reported as over 32 µg/mL (REMA).
`CC(C)C[C@H](NC(=O)[C@H](CCCCN)NC(=O)OCC1c2ccccc2-c2ccccc21)C(=O)N[C@H](C(=O)N[C@@H](Cc1ccccc1)C(=O)N[C@@H](Cc1ccccc1)C(=O)N[C@@H](CCCCN)C(=O)NCC(=O)N[C@@H](Cc1ccccc1)C(=O)N[C@@H](C)C(=O)N[C@@H](Cc1c[nH]c2ccccc12)C(=O)N[C@@H](CC(N)=O)C(=O)N[C@H](C(=O)N[C@H]1CSSC[C@@H](C(=O)N[C@@H](Cc2c[nH]cn2)C(=O)N[C@@H](CCCNC(=N)N)C(=O)N[C@@H](CCCNC(=N)N)C(=O)N[C@@H](C)C(=O)N[C@@H](CC(N)=O)C(N)=O)NC(=O)[C@H](C(C)C)NC(=O)[C@H](CCCNC(=N)N)NC(=O)[C@H](C(C)C)NC(=O)CNC(=O)[C@H](CC(N)=O)NC(=O)[C@H](CCCNC(=N)N)NC(=O)[C@H](Cc2ccc(O)cc2)NC(=O)[C@H](C(C)C)NC1=O)C(C)C)C(C)C` has an Emax of -5.76 log CFU (bactericidal activity; CGMCC 1.9; 24 h).
Under oxacillin MIC, `OB(O)CSc1nc2ccccc2n1Cc1ccc(C(F)(F)F)cc1C(F)(F)F` is recorded as “no effect” (mec operon, bla-negative; 8 mg/L, together with: oxacillin).
`CN[C@H](CC(C)C)C(=O)N[C@H]1C(=O)N[C@@H](CC(N)=O)C(=O)N[C@H]2C(=O)N[C@H]3C(=O)N[C@H](C(=O)N[C@H](C(=O)O)c4cc(O)cc(O)c4-c4cc3ccc4O)[C@H](O)c3ccc(c(Cl)c3)Oc3cc2cc(c3O[C@@H]2O[C@H](CO)[C@@H](O)[C@H](O)[C@H]2O[C@H]2C[C@](C)(N)[C@H](O)[C@H](C)O2)Oc2ccc(cc2Cl)[C@H]1O` has an ROS level of 791 a.u. (DCFH-DA fluorescence; MRSA ATCC 33591; 2 × MIC; higher = more ROS).
